# Published values of several laboratories.
# Compare with care: the assays were run in different laboratories. ± gives the spread as reported.
# TNKS2: Poly [ADP-ribose] polymerase tankyrase-2 (TNKS2, Homo sapiens, UniProt Q9H2K2)
# DRD3: D(3) dopamine receptor (DRD3, Homo sapiens, UniProt P35462)
Structure (SMILES),target,assay,system,setting,scale,IC50
O=c1[nH]c2c(nnn2C2CCCCC2)c2ccccc12,TNKS2,"ADP-ribosyltransferase activity, inhibitor, NAD+ consumption fluorescence",,,,1.29 µM
Cc1c(N(C)C)ccc2cc(C(=O)NS(=O)(=O)c3ccccc3-c3ccccc3)oc12,"Histone acetyltransferase KAT6A, residues 194-810 (KAT6A, Homo sapiens, UniProt Q92794)","enzyme activity, inhibitor",,,,> 20 µM
C=CC(=O)Nc1cc(Nc2nccc(-c3cn(C)c4ccccc34)n2)c(OC)cc1N(C)CCN(C)C,"Multidrug and toxin extrusion protein 1 (SLC47A1, Homo sapiens, UniProt Q96FL8)",inhibitor,,,,4.63 µM
Cc1ccc(NS(=O)(=O)c2c(C)[nH]c(C)c2C(=O)N2CCC(F)(F)C2)cc1N(C)C,DRD3,"Go activation, antagonist, BRET",,with: dopamine,,> 100 µM
CNC(=O)CCOCCC(=O)N1CC2CCC(C1)C2NCc1cc(-c2cc(O)ccc2OC(F)(F)F)ccc1F (centres unmarked),"Estrogen receptor (ESR1, Homo sapiens, UniProt P03372, D538G)",,,,,~1 µM
CC[C@@H]1[C@H](F)C(=O)N[C@@H]1COc1nccc2cc(C(N)=O)c(OC)cc12,"Cyclin-dependent kinase 2 (CDK2, Homo sapiens, UniProt P24941)","ATP probe binding, KiNativ profiling, measured: Lys1 probe site",THP-1 cell lysate,,,> 5 µM
COc1c([C@H]2[C@H](C(=O)Nc3ccnc(C(N)=O)c3)O[C@@](C)(C(F)(F)F)[C@H]2C)ccc(F)c1F,"Progesterone receptor (PGR, Homo sapiens, UniProt P06401)","functional activity, antagonist",,,,29.6 µM
Cc1ccc(Cn2nnc3c4ccccc4c(=O)[nH]c32)cc1,TNKS2,inhibitor,,,,0.055 µM
Cc1[nH]c(C)c(S(=O)(=O)N2CCC(F)(F)C2)c1S(=O)(=O)Nc1ccc(C(F)(F)F)c(Cl)c1,DRD3,"β-arrestin recruitment, antagonist, PathHunter",,with: dopamine EC80,,> 100 µM
CC[C@H](C)[C@H](NC(=O)[C@H](C)N)C(=O)N[C@@H](CCCCN)C(=O)N[C@H](C(=O)N[C@@H](CCCCN)C(=O)N[C@@H](CCCNC(=N)N)C(=O)N[C@@H](CCCCN)C(=O)N[C@@H](CCCNC(=N)N)C(=O)N[C@@H](CCCCN)C(=O)N[C@@H](CCCCN)C(=O)O)[C@@H](C)O,"Coagulation factor V, activated factor Va (F5, Homo sapiens, UniProt P12259)","prothrombinase activity, inhibitor",,,,70 µM
Cc1[nH]c(C)c(S(=O)(=O)Nc2ccc(C(F)(F)F)c(Cl)c2)c1C(=O)N1CC2(CCC2)C1,DRD3,"Go activation, antagonist, BRET",,with: dopamine,,> 100 µM
CCn1ncc2c1-c1cnc(N)c(c1)O[C@H](C)c1cc(F)ccc1-c1nn(C)nc1C2,"NTRK1/Tropomyosin alpha-3 chain (Homo sapiens, UniProt P04629+P06753)",cell viability,,,,0.33 µM
Cc1[nH]c(C)c(S(=O)(=O)Nc2ccc(C(F)(F)F)c(Cl)c2)c1S(=O)(=O)Nc1ccc(C(F)(F)F)c(Cl)c1,DRD3,"β-arrestin recruitment, antagonist, PathHunter",,with: dopamine EC80,,> 100 µM
COc1ccc(F)cc1C(=O)NCc1ccc(-c2nn([C@@H](C)C(F)(F)F)c(N)c2C(N)=O)cc1,"Tyrosine-protein kinase Fyn (FYN, Homo sapiens, UniProt P06241)","target engagement, NanoBRET tracer displacement",HEK293,,above top tested dose,> 5 µM
CC(C)Oc1c(NC(=O)c2ccc(NC(=O)[C@H](CC(N)=O)NC(=O)c3cc(F)c(/N=N/c4c(F)cccc4F)c(F)c3)cc2)ccc(C(=O)N/N=C/c2ccc(C(=O)O)s2)c1O,"DNA gyrase (gyrA/gyrB, Escherichia coli, UniProt P0AES4+P0AES6)","DNA supercoiling, inhibitor",,"30 min, 37 °C, after 1 h irradiation at 365 nm",,> 25 µM
O=C(COc1ccc(Cl)cc1Cl)N/N=C/c1cc2c(s1)CCCC2,"1-deoxy-D-xylulose-5-phosphate synthase (dxs, Deinococcus radiodurans, UniProt Q9RUB5)",inhibitor,,,,101 ± 15.1 µM
Cc1[nH]c(C)c(S(=O)(=O)Nc2ccc(S(C)(=O)=O)c(Cl)c2)c1C(=O)N1CCC(F)(F)C1,DRD3,"β-arrestin recruitment, antagonist, PathHunter",,with: dopamine EC80,,> 100 µM
COc1cccc2c(N3CCC(CCP(=O)(O)O)CC3)ncnc12,"Ectonucleotide pyrophosphatase/phosphodiesterase family member 1 (ENPP1, Homo sapiens, UniProt P22413)","cGAMP hydrolysis, inhibitor",,"overnight, with: cGAMP 2 µM",,0.0006 µM
Cc1ccc(NS(=O)(=O)CCC(=O)N[C@@H](C)CC(=O)N2CCCC2)cc1Cl,DRD3,"β-arrestin recruitment, antagonist, PathHunter",,with: dopamine EC80,,> 100 µM
O=C(O)CC(=O)C(=O)O,"Hypoxia-inducible factor 1-alpha inhibitor (HIF1AN, Homo sapiens, UniProt Q9NWT6, E105A)","enzyme activity, inhibitor",,pH 7,,> 1000 µM
Cc1ccc(Cn2cc(-c3ccccc3C(N)=O)nn2)cc1,TNKS2,inhibitor,,,,> 10 µM
CCN(CC)C(=O)c1c(C)[nH]c(C)c1S(=O)(=O)Nc1ccc(C(F)(F)F)c(Cl)c1,DRD3,"Go activation, antagonist, BRET",,with: dopamine,,> 100 µM
Cc1ccc(Cn2nnc3c4cc(C)ccc4c(=O)[nH]c32)cc1,TNKS2,"ADP-ribosyltransferase activity, inhibitor, NAD+ consumption fluorescence",,,,0.0832 µM
CC(C)(C)NS(=O)(=O)c1cccc(C(=O)N2CC3(CCC4(CC4)CC3)c3cc(NS(C)(=O)=O)ccc32)c1,"Kinesin-like protein KIF18A (KIF18A, Homo sapiens, UniProt Q8NI77)",inhibitor,,,,0.061 µM
N#CSc1cc(SC#N)c(N)nc1N,"Ubiquitin carboxyl-terminal hydrolase 8 (USP8, Homo sapiens, UniProt P40818)",,,,,0.75 µM
Cc1ccc(NS(=O)(=O)c2c(C(=O)N3CCC(F)(F)C3)cnn2C)cc1Cl,DRD3,"Go activation, antagonist, BRET",,with: dopamine,,> 100 µM
CCCCn1c(=O)c2cc(F)ccc2c2nnn(Cc3ccc(C)cc3)c21,TNKS2,inhibitor,,,,> 10 µM
O=C1C(SCCO)=C(SCCO)C(=O)c2ccccc21,"Coagulation factor XIII A chain (F13A1, Homo sapiens, UniProt P00488)",crosslinking activity,,with: DTT,,> 50 µM
CN1CCN(c2ccc(Nc3ncc4cc(C#N)c(=O)n(C5CCCC5)c4n3)cc2)CC1,"Serine/threonine-protein kinase TAO2 (TAOK2, Homo sapiens, UniProt Q9UL54)",,,,,0.0739 µM
